Assay results from different studies.
Parts stem from different laboratories: compare values within a part only. Changes are numbered by the printed parent chain.

Block 1 — technique: protein-binding microarray; form: double-stranded DNA, one strand shown; matrix: in vitro; concentration: 2200 nM top; setting: 60-bp whole probe; added: salmon DNA 0.4 mg/ml; reference: random background probes; reading: higher = stronger binding; all sequences stand within: GCCTAGCAC … GTCTTGATTCGCTTGACGCTGCTG
Target: Interferon regulatory factor 7, full length, phosphomimetic (IRF7, Homo sapiens, UniProt Q92985, residues 1-503, S471D/S472D/S475D/S476D/S477D/S483D/S484D/S487D)
UniProt Q92985, sequence (whole entry, unmodified, looked up): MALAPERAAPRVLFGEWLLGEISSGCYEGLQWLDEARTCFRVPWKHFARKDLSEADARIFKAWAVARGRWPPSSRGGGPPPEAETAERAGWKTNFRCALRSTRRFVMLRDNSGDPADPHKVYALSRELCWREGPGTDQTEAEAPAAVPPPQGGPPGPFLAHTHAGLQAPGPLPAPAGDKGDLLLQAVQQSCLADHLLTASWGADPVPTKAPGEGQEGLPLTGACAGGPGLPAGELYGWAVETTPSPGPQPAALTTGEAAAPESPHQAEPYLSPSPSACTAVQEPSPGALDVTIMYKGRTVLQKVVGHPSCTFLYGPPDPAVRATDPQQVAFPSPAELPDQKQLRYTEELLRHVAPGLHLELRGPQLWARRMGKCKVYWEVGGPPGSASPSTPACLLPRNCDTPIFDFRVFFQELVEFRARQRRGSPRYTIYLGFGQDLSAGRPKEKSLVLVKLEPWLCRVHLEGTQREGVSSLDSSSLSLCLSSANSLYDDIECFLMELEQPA
Oligonucleotide | fitted relative affinity [z-score]
GACGGTATCGGACTGGGGATGTGCTAG | -0.535
TCAAAAAATGATTGGTTACTGTGCTAG | -0.888
TTAGGACTGGCGACTGGGTTAGTGCTA | -1.11
CTAGGTTTCGGACTGGGTTAGTGCTAG | 3.26
GACGGTATCGGCACTGGGGACGTGCTA | -0.675
CTTTACATGAGTTTAGAGCCGTGCTAG | 0.408
GAGGATTTCAGTTTCGAGACGTGCTAG | 4.94
TTAGGTTTCAGGTATCGGTTAGTGCTA | 3
TCATGTCTGTGTCACAGACTGTGCTAG | 0.816
CTTATTCTCTACTTGTGTCTGTGCTAG | 2.24
GACGGTATCGGTTTCGGTACGTGCTAG | 5.09
CTCACTCTAATCTCACTCTGTGTGCTA | 1.34
TCACCTTTGCCTCCAGGACTGTGCTAG | 1.49
GACGGACTAGACACTGGGGACGTGCTA | -0.772
GACGATCTCTGACTGGAGACGTGCTAG | 0.0179
TCAATCTTCAAGACTCATACTGTGCTA | 0.289
TTTTTTTTTTTTTTTTGGAAGTGCTAG | 1.85
TTAGGACTGGGGACTGGTTTAGTGCTA | -0.729
TTAGGACGGGGTCTCGGTTAGTGCTAG | -0.298
CTTCCCCTCTCATTCCAATTGTGCTAG | 2.16
GACGGTGTCCTACTGCTGACGTGCTAG | -0.000908
TTAGGTTCCCGTTTCCTTTAGTGCTAG | 3.34
GACGATTTCCGTTTCGAGACGTGCTAG | 5.14

Block 2 — technique: RNA Bind-n-Seq; form: RNA; matrix: in vitro; concentration: 365 nM; reference: no-protein control; reading: higher = stronger binding
Target: RNA binding protein fox-1 homolog 2, RRM domain, GST-SBP tag (RBFOX2, Homo sapiens, UniProt O43251-10, residues 100-194)
Setting: natural RNA segment, single round, ends assumed
All sequences stand within: GGGAGUUCUACAGUCCGACGAUC … UGGAAUUCUCGGGUGCCAA
Target sequence (chain): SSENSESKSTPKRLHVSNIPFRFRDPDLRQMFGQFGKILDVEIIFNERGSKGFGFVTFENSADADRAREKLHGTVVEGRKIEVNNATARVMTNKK
Oligonucleotide | RBNS enrichment (R)
CACCCCGGGCUCUCUGCUGUACAUAUUCGAGACUAGUUUUUAUUCCUUGUGAAGAUGAUAUACUAUUUUUGUUAAGCGUGUCUGUAUUUAUGUGUGAGGAGCUGCUGGCU | 0.393
GGAAGAAGCCUCUCCCUCUCUGUCAGCACCAGCUGGUAAAGGUGACUGUACAGAUGUGCAUUUUCCUUUUGGUAUAAAUGGUCCACAGCACUAACUGGUAAGGCUUAUUG | 1.3
AUGCUAGUAGAAUCUAGUUUAAUUGUUUCAGGUGGAAAGUAUUCUUUGAGUUUCCAUAUUGAAUGUGUUUGGACUAAACAAACAAUAAACUACUGAUGUCUGCAGCAUUU | 1.02
GGUUUUUUGAGAUGAAGCAUUUGUUACAGAUAAUUGGGUAGAGUGGAGUGUAUCUGCUUAAGGGGUGAAGUUUGUUUUUUCUUGUCUCUGAAAACUAAGCCCUCAAUGAA | 2.92
UGGGAACUGAAGUCAGAGGCACGAACACUAACUCUUAGCAUUUUUCUGUAGACUUUUUCUUCUGGCCCUUGUCCCUGCCAGCAAAACGCCCCUUUUCUGAUCAUUCGUGC | 1.2
GAGGAGAAUGUGUGCUGGGCUAUGGGAGCCAUGUUCAGAGAUUUGUGUGUGUGUGCCAGAGUAGCUGCAUUCUGAUUCACUAAUCCCUCAUUUUAAUGUGUGCCUUAUGC | 1.77
UGGCAGCUGGUUCUGGUGGCACUGAGAUGAGUGCCACCAGAGGCUCACACUCACUCUCUGUUGAGCUUCUUCCCAGGGAAGGGGAUUCUGGGACAGGGGGCUGCCACUAA | 0.417
ACCUCUUUUUCUUUAUAAAUUACCCAGUCUUGGUUAUGUCUUUAUCAGCACUGUGAAAAUGAACCUAUACAGUAAAUUGGUACCAGUAGAGUGGGGCGCUGCUGUAAAUA | 0.588
AAGGAGGAAAGAGAUAAAGGUUAAAGUCCCAGAUCUGUGCCCUCCAGUAGGUUGGGCUGCUCAUUUGCCUUCGGAUGACAUUAUGUAAAUAAACGAAUGUCACACCCACA | 0.282
AUCCCGUCUUAUGGUGAAAUGUAAAAGAGAAGGAGAUUUCCUGUAACUUUGCCCACAUUUGCUUCCGGAAGCAGCGCACAGCUGUCUGUAUGUUUAAAAGAUAGCAUCUA | 0.736
GAUUGCAGUAGCCCAUUGGUUGUUCAUAUAUUUAAAUAAAAUGGUCUACAAACUAUUUUUCAAACAAUAAGGACUAUCUUGGGAUAUCUGAGCUGCUUGGGGAGGGUGUG | 0.523
UGCUCUUCUGUCCUGCCUCACUGUAACUGCCUCCAUUCUGUGCAGUCUACAGUAAGAAUGCCUGCUUCCAAGACUCAGAUACAUAGGGACGUUUUUACCCGUUCCGUAGA | 0.816

Block 3 — target: CCNF, cyclin fold, Cln2 fusion (human); technique: yeast growth competition, sequencing; matrix: yeast; setting: weak parent motif; reference: not given; reading: higher = stronger binding
Parent: PKN2 docking peptide (human); VSAVQKLDFSDTM; partner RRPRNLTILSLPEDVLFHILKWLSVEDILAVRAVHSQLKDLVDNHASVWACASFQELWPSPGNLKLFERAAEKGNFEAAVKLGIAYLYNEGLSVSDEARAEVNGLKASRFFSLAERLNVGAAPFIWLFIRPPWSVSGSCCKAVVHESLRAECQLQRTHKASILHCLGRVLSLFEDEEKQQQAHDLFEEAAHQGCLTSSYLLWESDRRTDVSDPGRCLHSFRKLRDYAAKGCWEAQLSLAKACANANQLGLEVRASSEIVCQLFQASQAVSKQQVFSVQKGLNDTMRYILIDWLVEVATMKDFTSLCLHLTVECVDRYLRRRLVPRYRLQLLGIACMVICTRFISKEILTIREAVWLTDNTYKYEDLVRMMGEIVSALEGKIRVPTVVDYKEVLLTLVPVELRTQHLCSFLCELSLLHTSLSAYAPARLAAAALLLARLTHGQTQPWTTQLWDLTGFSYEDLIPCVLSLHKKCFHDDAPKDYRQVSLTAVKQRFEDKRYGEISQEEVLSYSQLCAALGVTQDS
Variant | normalised enrichment score
VSAVQNLDFSDTM [K6N] | 0.0114
VSAVQKLDFSLTM [D11L] | 1.33
VSAVQKLDFSETM [D11E] | 0.902
VSARQKLDFSDTM [V4R] | 1.76
VSAVQKLDFSHTM [D11H] | 1.43
WSAVQKLDFSDTM [V1W] | 1.67
VSAVQKLVFSDTM [D8V] | 2.28
DSAVQKLDFSDTM [V1D] | -0.0741
VSAVQKLDFEDTM [S10E] | 2.06
VSAVQKLDNSDTM [F9N] | 0.802
VSAVAKADFSDTM [Q5A L7A] | -0.141
KSAVQKLDFSDTM [V1K] | 1.55
RSAVQKLDFSDTM [V1R] | 1.16
VSAVQKLDCSDTM [F9C] | 0.0652
VSFVQKLDFSDTM [A3F] | 0.314
VHAVQKLDFSDTM [S2H] | 1.01
VSAVQKLIFSDTM [D8I] | 1.8
VSAVQKLDFSWTM [D11W] | 1.38
VSAVQKLDFRDTM [S10R] | 0.145
ESAVQKLDFSDTM [V1E] | -0.765
VYAVQKLDFSDTM [S2Y] | 1.95
VSIVQKLDFSDTM [A3I] | 0.463
VSAVQKLDFTDTM [S10T] | 0.916
VSAVQKLDFSDTW [M13W] | 1.06
VSAVQKLGFSDTM [D8G] | 0.377

Block 4 — technique: universal PBM; form: double-stranded DNA, one strand shown; matrix: in vitro; concentration: not given; reading: higher = stronger binding
Target: Sal-like protein 4, full length isoform B (SALL4, Homo sapiens, UniProt Q9UJQ4-2, residues 1-616)
Setting: 8-mer, flanks averaged, mean of replicates
Oligonucleotide | E-score
AGGCACAG | -0.0363
GACGACGA | -0.0221
GACGATCA | 0.0101
AAAGCGCA | -0.0713
CTTTTATA | 0.273
CGCTCCAC | -0.222
GACTCACC | -0.102
ACGACCGA | -0.0902
GAGATGGA | -0.204
CCATACAG | -0.0523
ATTCTATG | 0.201
ACGGTTCC | -0.144
ACTGAACG | 0.0185
AAACACCA | 0.0815
CGGACCTC | -0.313
AGTTAGAT | 0.156
AGCAAACA | 0.0388
CAAGAGAC | -0.148
ATTTCCCC | 0.00148

Block 5 — technique: DHFR PCA, deep sequencing; matrix: yeast; added: (+)-ABA 17 µM; reference: wild-type fitted maximum; reading: higher = stronger binding
Target: ABI1, truncated, D143A, DHFR fusion (Arabidopsis thaliana)
Setting: methotrexate growth selection, single substitutions
Parent: PYL1, truncated, DHFR fusion (Arabidopsis thaliana); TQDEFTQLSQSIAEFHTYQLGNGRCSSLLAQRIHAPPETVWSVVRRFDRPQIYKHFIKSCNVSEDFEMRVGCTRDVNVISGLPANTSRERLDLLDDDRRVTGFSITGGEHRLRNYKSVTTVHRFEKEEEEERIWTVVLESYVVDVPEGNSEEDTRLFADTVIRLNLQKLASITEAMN; partner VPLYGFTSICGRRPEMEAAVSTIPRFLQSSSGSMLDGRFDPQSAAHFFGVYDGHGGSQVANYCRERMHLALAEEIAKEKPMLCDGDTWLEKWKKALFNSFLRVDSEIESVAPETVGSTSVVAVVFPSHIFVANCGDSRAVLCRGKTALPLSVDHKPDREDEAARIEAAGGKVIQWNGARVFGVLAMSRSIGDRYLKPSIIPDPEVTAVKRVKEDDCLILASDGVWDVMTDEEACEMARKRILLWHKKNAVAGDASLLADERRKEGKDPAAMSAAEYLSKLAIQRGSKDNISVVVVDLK
Variant | relative binding score
F66K | 70.1%
S171H | 91.3%
R111V | 4.32%
S63H | 74.8%
L91Q | -12.3%
T101C | 76.4%
S42P | 44.3%
G23W | 27.9%
E129P | 87.2%
P146Y | 4.46%
R163S | 67.4%
T86P | -8.03%
S80D | -2.68%
A13E | 86.4%
R45P | -3.78%
V142K | 43.7%
G108S | 3.28%

Block 6 — target: ATF1, bZIP domain (human); technique: DHFR protein complementation; matrix: yeast; reference: wild-type JUN-FOS pair; reading: higher = stronger binding
Setting: single substitutions, most at no-binding floor
Parent: JUN, bZIP domain (human); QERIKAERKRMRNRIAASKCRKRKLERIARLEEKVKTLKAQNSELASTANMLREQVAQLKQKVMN; partner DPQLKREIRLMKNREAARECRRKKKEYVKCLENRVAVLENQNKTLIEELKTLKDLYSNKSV
Variant | binding fitness [natural log]
V35T | -1.5
V35S | -1.52
L38I | -1.53
I28E | -1.53
K39Y | -1.48
E32I | -1.51
K34G | -1.52
E54D | -1.48
L45G | -1.54
M51W | -1.51
E33P | -1.52
Q55I | -1.5
V35L | -1.53
E54W | -1.53
A29R | -1.42
I28R | -1.47
L52T | -1.55
S47I | -1.26
L38G | -1.51
R53M | -1.58

Further values, each from its own experiment
Substance | target | assay | test system | setting | how to read | measurement | result
PhoQ, residues 284 288 289 292 302 303 SMMNNA | PhoP, residues 12 14 15 18 19 NMSSL (Escherichia coli, UniProt P23836) | Sort-seq, measured: YFP reporter | E. coli | PhoQ-PhoP variant library, added: 10 µM Mg2+ | reference: high Mg2+ state, higher = stronger signaling | fold induction | 5.68
